Published values of several laboratories.
Compare with care: the assays were run in different laboratories. Several values in a cell are separate wells, animals, samples, runs or records. Numbers after ± are the reported error.

SMILES | target or system | assay | system | conditions | scale | endpoint | result
CC(C)(C)[C@H]1CC[C@H](CC2=C(O)C(=O)c3ccccc3C2=O)CC1 | THP-1 | pyroptotic LDH release |  | 2 µM, 40 min, added: LPS then nigericin |  | inhibition | 44.8%
c1ccc(-c2nc3n(c2-c2ccc4sc5ccccc5c4c2)CCC3)nc1 | Leishmania infantum |  | macrophages, MHOM/MA(BE)/67/ITMAP263, amastigote |  |  | IC50 | 170 nM and 520 nM
CC(C)n1ncc2c(C(=O)NCC3(C)CNC3)cc(C3CC3)nc21 | Enterovirus D68 | viral replication | RD, recombinant wild-type US/MO/14-18947 | 0.03 µM | baseline: untreated | plaque area | 89.5% and 105%
CC(C)[C@H](NC(=O)[C@H](Cc1ccc(O)cc1)NC(=O)[C@H](Cc1ccc(O)cc1)NC(=O)[C@@H]1CCCN1C(=O)[C@H](CCC(=O)O)NC(=O)[C@H](CCC(=O)O)NC(=O)[C@H](Cc1c[nH]c2ccccc12)NC(=O)[C@@H]1CCCN1C(=O)[C@@H](NC(=O)[C@H](CCC(N)=O)NC(=O)c1ccc2c(c1)C(=O)OC21c2ccc(O)cc2Oc2cc(O)ccc21)C(C)C)C(=O)N[C@H](C(=O)N[C@@H](CCCCN)C(=O)N[C@@H](CCCCN)C(=O)N[C@@H](CO)C(=O)N[C@@H](CO)C(=O)NCC(=O)NCC(N)=O)C(C)C |  | measured: total compound | human, plasma | intravenous infusion, 100 mg, 30 min |  | plasma concentration | 5110 ng/mL
COc1cnc2cccc(N3CCc4c(cc(Cn5ccnc5C)cc4-c4cn(C)nc4C(F)(F)F)C3=O)c2c1 | SUM-159-PT | cell growth, inhibitor |  | 120 h |  | EC50 | 1990 nM
Fc1ccc(Nc2c(-c3cccnn3)nc3ccccn23)cc1 | Leishmania infantum |  | MHOM/MA(BE)/67/ITMAP263 | 120 h | baseline: CC50 macrophages over EC50 amastigotes | selectivity index | 2
Cc1cc(NS(=O)(=O)c2ccc(N)cc2)no1 | THP-1 | pyroptotic LDH release |  | 2 µM, 40 min, added: LPS then nigericin |  | inhibition | 29.3%
CCn1cc(-c2cc(Cn3ccnc3)cc3c2CCN([C@H](c2cc(OC)ccn2)C2CC2)C3=O)c(C(F)(F)F)n1 | OV7 | cell growth, inhibitor |  | 120 h |  | EC50 | > 30000 nM
Cn1cc(-c2ccc(-c3cncc(Cl)c3N3CCC4(CCNC4=O)CC3)cc2)cn1 | COLO 205 | gene expression, microarray, measured: PFKFB4 mRNA |  | concentration not given, 6 h | baseline: untreated cells | log2 fold change | 2.54
COc1ccn2c(N)c(-c3ccccn3)nc2c1 | Leishmania infantum |  | macrophages, MHOM/MA(BE)/67/ITMAP263, amastigote |  |  | IC50 | 5280 nM and 21100 nM
O=C1C2CC3CC1CC(O)(C3)C2 | THP-1 | pyroptotic LDH release |  | 2 µM, 40 min, added: LPS then nigericin |  | inhibition | -13.6%
Cc1cc(O)c2c(c1)C(=O)c1cc(O)cc(O)c1C2=O | HK-2 co-cultured with HepaRG | MTT |  | 16.67 µM, 24 h | baseline: untreated control | viability | 95.9 ± 8.77%
Cc1ccc(S(=O)(=O)NC(=O)NN2CCCCCC2)cc1 | THP-1 | pyroptotic LDH release |  | 2 µM, 40 min, added: LPS then nigericin |  | inhibition | -4.37%
CCn1cc(-c2cc(Cn3ccoc3=N)cc3c2CCN([C@@H](C)c2cc(OC)ccn2)C3=O)c(C(F)(F)F)n1 | HEP3B217 | cell growth |  | 120 h |  | EC50 | 2680 nM
Fc1ccc(Nc2c(-c3ccccn3)nc3ccc(C4CC4)cn23)cc1 | Leishmania infantum |  | macrophages, MHOM/MA(BE)/67/ITMAP263, amastigote |  |  | IC50 | 5080 nM and 8110 nM
CN1CCC(COc2cnc(-c3cccc(Cn4nc(-c5cccc(C#N)c5)ccc4=O)c3)nc2)CC1 | THP-1 | pyroptotic LDH release |  | 2 µM, 40 min, added: LPS then nigericin |  | inhibition | 30.6%
CC(C)CN(c1ccc(F)cc1)c1c(-c2ccccn2)nc2ccccn12 | Leishmania infantum |  | macrophages, MHOM/MA(BE)/67/ITMAP263, amastigote |  |  | IC50 | 4550 nM and 590 nM
C[C@H](CCC(=O)O)[C@H]1CC[C@H]2[C@@H]3C[C@H](O)[C@@H]4C[C@H](O)CC[C@]4(C)[C@H]3CC[C@]12C | THP-1 | pyroptotic LDH release |  | 2 µM, 40 min, added: LPS then nigericin |  | inhibition | -9.76%
COc1c(O[C@@H]2O[C@H](CO)[C@@H](O)[C@H](O)[C@H]2O)c(C)cc2c1C(=O)c1c(O)cccc1C2=O | HK-2 co-cultured with HepaRG | MTT |  | 33.33 µM, 24 h | baseline: untreated control | cell viability | 76 ± 6.81%
O=C(O)CNC(=O)Cc1ccccc1 |  |  | ventricular cardiomyocytes, C57BL/6 mouse | dose not given, 0.604 s |  | sarcomere length | 1.67 µm
CN(c1ccc(F)cc1)c1c(-c2ccc(F)cn2)nc2ccccn12 | Leishmania infantum |  | macrophages, MHOM/MA(BE)/67/ITMAP263, amastigote |  |  | IC50 | 760 nM and 2520 nM
Cc1c[nH]c2ccccc12 | THP-1 | pyroptotic LDH release |  | 2 µM, 40 min, added: LPS then nigericin |  | inhibition | -1.51%
Fc1ccc(-c2c(-c3ccccn3)nc3n2CCC3)cc1 | Leishmania infantum |  | macrophages, MHOM/MA(BE)/67/ITMAP263, amastigote |  |  | IC50 | 3170 nM and 2000 nM
OC(CCN1CCCCC1)(c1ccccc1)C1CC2C=CC1C2 (stereo not shown) |  | resting-state EEG | healthy elderly humans | oral, 2 mg, eyes open, LS mean |  | EEG Beta1-power Pz-O1 | 3.8 µV²
CC(C)[C@H](NC(=O)[C@@H](NC(=O)CCCc1cn(CC(O)CN2CCN(CC(=O)O)CCN(CC(=O)O)CCN(CC(=O)O)CC2)nn1)[C@@H](C)O)C(=O)N[C@@H](CCCNC(=N)N)C(=O)N[C@H](C(=O)N[C@@H](CO)C(=O)N[C@@H](C)C(=O)N[C@@H](CC(=O)O)C(=O)O)[C@@H](C)O (stereo partly shown) |  |  | healthy male humans, plasma | intravenous bolus, 0.08 mmol/kg |  | AUC(0-inf) | 1950 ± 322 µg·h/mL

Some of these lines once more:
SMILES | target or system | assay | system | conditions | scale | endpoint | result
C[C@H](CCC(=O)O)[C@H]1CC[C@H]2[C@@H]3C[C@H](O)[C@@H]4C[C@H](O)CC[C@]4(C)[C@H]3CC[C@]12C | THP-1 | pyroptotic LDH release |  | 2 µM, 40 min, added: LPS then nigericin |  | inhibition | -9.76%
COc1c(O[C@@H]2O[C@H](CO)[C@@H](O)[C@H](O)[C@H]2O)c(C)cc2c1C(=O)c1c(O)cccc1C2=O | HK-2 co-cultured with HepaRG | MTT |  | 33.33 µM, 24 h | baseline: untreated control | cell viability | 76 ± 6.81%
